# Assay results gathered from unrelated publications.
# Every numbered part comes from another study and shows a few of its results, in no order.

# Set 1
# Target: RING finger protein unkempt homolog, zinc fingers 1-6, GST-SBP tag (UNK, Homo sapiens, UniProt Q9C0B0, residues 30-357)
# Technique: RNA Bind-n-Seq
# Form: RNA
# Sample: in vitro
# Concentration: not given
# Setting: RNA with constant flanks, ends assumed
# Reference: input RNA pool
# Reading: higher = stronger binding
# All sequences stand within: GGGAGUUCUACAGUCCGACGAUC … CAACAGAGGAUUGAGCAUCA
# Target sequence (chain): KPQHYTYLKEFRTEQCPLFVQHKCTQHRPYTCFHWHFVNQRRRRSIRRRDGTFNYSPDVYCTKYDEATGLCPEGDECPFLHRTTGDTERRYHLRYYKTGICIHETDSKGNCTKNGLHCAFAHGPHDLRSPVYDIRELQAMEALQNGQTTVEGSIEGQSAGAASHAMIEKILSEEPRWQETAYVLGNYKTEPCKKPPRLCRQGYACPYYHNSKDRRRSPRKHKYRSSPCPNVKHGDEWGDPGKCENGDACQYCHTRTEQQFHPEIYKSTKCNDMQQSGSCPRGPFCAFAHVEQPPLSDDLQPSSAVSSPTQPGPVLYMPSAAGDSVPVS
Sequence,bound/input enrichment
CCAACCUUUUGAUGUUGUGACUUGAAGCCUGAGAAUUGAAUGUUUUAAGUGAGUUUACAGUUCCGUGCUGGGCCACAUUCCUAGUUAUUCUGAGGUAUACGCAGCCUGCAAGCUGCGGUU,0.165 ratio
UGUGGGAUAUCACAUCAGUGGUUCCAAGAUUUCAAAGUGGUGAAAUGAAAAUGGAGCAGCCCGUAUGUUUUAUUAUUUUAUGGGUCUUGAGUGCAUUUGAAGGUGUCCUUCAGUUCCCAC,0.159 ratio
AUACUGUGGAUAUUUGUGAAUUGUGUGGUUUGUUUGUUUGUUUUCUUUUAUGUACUGUUGACCCGUUAUGGCACUUACUGAUUAAACUUACACUGCUGCAGAUUGCUGUGUAACAAGCCA,0.407 ratio
CCGGCCCCAGUGCCAUCCAGAAGAAAUCCCCCUGGCGGCAAGUCCAGCCUCGUCUUGGGUCCGCUCUGACUGUCCUGAACGCUGUCGUUCUGUCUGUUUCCUCCAUGCUUGUGAACUGCA,0.151 ratio
UGGUCUUCAGAGAGCAACUAUCCUCCCCAGUACUUGAUUCUAAAGCUCGAAAGGCCUGCUACCGUUCAGAAUAUCACAUUUGGAAAAUAUGAGAAAACUCAUGUUUGCAAUUUGAAGAAA,0.11 ratio
CCCCCUUUCAGGUGUGGUAUCAGUACGCUUUGAAGAAGAUGAAGACAGGAACUUGUGUUUAACCGCAUAUCCAUUAAAAGGGGACCAUGGAACUGUGGAUAUAGUAGACAAUUCGGACUG,0.582 ratio
AUGCUGAUCAAUGGCUAUGCGCUCAAUUGUGUGGUUGGAUCUCAGGGCAUGCCCAAGAGAACCGUUAAUGCAAAAAUUGCUUGUCUUGACUUCAGCCUGCAGAAAACAAAAAUGAAGCUU,0.0709 ratio
CGCCUGAGUACAGACGUGACUUGUAGCUUGUUGCCUAACAGGCUUACUAACCCAAGACAGUUCCGAAAAUGUAUGUUAAAUCAAUCAUUCUCGAAGGAUUCAAGUCCUAUGCACAGAGGA,0.127 ratio
CAAGGAAAGCCUAAUUUUGAAGAAUACUUUGAAAUUCUGACUCCAAAAAUCAACCAGACGUUCCGCGGGAUCAUGACUAUGUUGAAUAUGCAGUUUGUUGUACGAGUGAGGAGAUGGGAC,0.213 ratio
GGCCAGGAGCGAUUUCACACCAUCACAACCUCCUACUACAGAGGCGCAAUGGGUAUCAUGCCCGUAUAUGACAUCACCAAUGGUAAAAGUUUUGAAAACAUCAGCAAAUGGCUUAGAAAC,0.236 ratio
GUUGGAGAUACACAAGUGGUUGUUUUUAAGCAUGAAAAAGAAGAUGGUGCCAUUUCUACUACCGUUCUUCGAGGUUCUACAGACAAUCUGAUGGAUGACAUAGAAAGGGCAGUAGAUGAU,0.649 ratio

# Set 2
# Target: Interferon regulatory factor 5, full length, phosphomimetic (IRF5, Homo sapiens, UniProt Q13568-2, residues 1-514, S451D/S453D/S456D/S462D)
# Technique: protein-binding microarray
# Form: double-stranded DNA, one strand shown
# Sample: in vitro
# Concentration: 940 nM top
# Setting: 60-bp whole probe
# Together with: salmon DNA 0.4 mg/ml
# Reference: random background probes
# Reading: higher = stronger binding
# All sequences stand within: GCCTAGCAC … GTCTTGATTCGCTTGACGCTGCTG
Sequence,fitted relative affinity [z-score]
TACGATTTCAGACTGGAGACGTGCTAG,-0.159
TCATCCTTTACTTTCTTACTGTGCTAG,1.64
GACGGTCTCGGGTTCGGGACGTGCTAG,1.76
GTAGGACTGGGGTATCGGTTAGTGCTA,2.22
GACGATCTCAATCTCGAGACGTGCTAG,0.524
GACGATATCAGTTTCTAGACGTGCTAG,1.22
GACGAACTGGGGTAACGAGACGTGCTA,0.193
TCATTTTACATTATTACACTGTGCTAG,1.21
ACCACTCTTGCTTTTTAGATGTGCTAG,1.14
TTTTTTTTTGGAATGTCTTCGTGCTAG,0.831
TCATATTTATAAATTATACTGTGCTAG,0.54
TCACAGCTCCCTTTCTCACTGTGCTAG,0.494
TTAGATATCAGCATCGATTAGTGCTAG,-0.0642
GACGGACTGCTGATCCTGACGTGCTAG,-0.693
GACGGAGTGGACACTGGGGACGTGCTA,-0.375
GACGATTTCAGACTGAAGACGTGCTAG,-0.511
GGAGGAGCGGGACTGCCACCGTGCTAG,-0.905
GACGGTTTCGACTATCGGCACGTGCTA,8.08
TTAGGTAGCCTACTGCTTTAGTGCTAG,-0.34
TTAGTTTTCGGGTTTCGATTAGTGCTA,6.54
TCAAGGTCCCTTTTCATACTGTGCTAG,0.245
GACGATTTCAGCCTCGAGACGTGCTAG,0.0348
TTAGGTTTCGGTTACGGTTAGTGCTAG,15
GACGATCTCAGAATGGAGACGTGCTAG,-0.0377
TTAGGACTGGACACTGGGTCAGTGCTA,-0.297

# Set 3
# Target: PABPC1L2, full length, GST fusion (mouse, UniProt A0ABA7IW68)
# Technique: RNAcompete
# Form: RNA
# Sample: in vitro
# Concentration: 20 nM
# Setting: 7-mer, probes averaged, single round
# Reference: mean of 7-mers
# Reading: higher = stronger binding
# Target sequence (chain): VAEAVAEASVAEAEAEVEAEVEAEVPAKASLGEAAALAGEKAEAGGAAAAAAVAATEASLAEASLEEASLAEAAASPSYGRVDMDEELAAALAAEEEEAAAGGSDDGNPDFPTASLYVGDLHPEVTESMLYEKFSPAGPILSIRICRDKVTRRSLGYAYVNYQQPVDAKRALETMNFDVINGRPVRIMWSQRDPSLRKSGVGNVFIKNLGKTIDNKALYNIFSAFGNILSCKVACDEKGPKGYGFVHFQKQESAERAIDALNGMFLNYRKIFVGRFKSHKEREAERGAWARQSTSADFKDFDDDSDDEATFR
Sequence,7-mer Z-score
UGAAUUU,-0.0718
AGAUAAG,0.0406
AAAGCUA,0.61
AAUGUAU,0.1
GGUACAA,0.414
ACUGUGU,-0.0989
GACGCAA,0.0352
UCCUUCG,-0.432
CCUAUAC,-0.28
CAGCAUG,-0.0736
GUUUAUU,-0.353
ACCCCAC,-0.356
AAAUUCC,0.678
UUUCGGG,-0.188
GCUUCAA,-0.186
AUACAUA,0.0678
GAUAACA,0.153

# Set 4
# Target: Histone acetyltransferase KAT6A, winged helix 2, GST fusion (KAT6A, Homo sapiens, UniProt Q92794, residues 85-181)
# Technique: protein binding microarray
# Form: double-stranded DNA, one strand shown
# Sample: in vitro
# Concentration: not given
# Setting: 8-mer, flanks averaged, mean of 2 arrays, mostly near background
# Reference: not given
# Reading: higher = stronger binding
# Residues (chain): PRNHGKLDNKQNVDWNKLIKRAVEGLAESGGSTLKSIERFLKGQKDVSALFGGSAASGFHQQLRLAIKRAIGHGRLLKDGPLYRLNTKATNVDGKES
Sequence,E-score
ACAGGGCC,0.054
AACCGGTT,0.0443
TGGACTAA,-0.0251
GCTCGCTA,-0.000555
ATGTGTGG,-0.0289
CTTGTCCA,-0.0166
AGGATATG,-0.0634
CTGTGGAA,0.105
GAACACGC,0.0699
AATACTCG,-0.211
AGAACTTA,-0.0228
ATGTACTA,-0.0759
ACACTAGT,-0.201
AGTTCCAC,-0.0749
AGCCCGAT,0.0541
CTATAACC,-0.302
ATTTATGC,-0.0265
CGATCGCG,0.063
CTGCCCTC,0.0533
CTTCGAGC,0.0472
AGGGATAG,-0.171
CCCCACGC,-0.00504
CAAACACC,0.0909
AGATTCTC,0.00961
CTCATGCA,-0.0532

# Set 5
# Target: RNA binding protein fox-1 homolog 2, RRM domain, GST-SBP tag (RBFOX2, Homo sapiens, UniProt O43251-10, residues 100-194)
# Technique: RNA Bind-n-Seq
# Form: RNA
# Sample: in vitro
# Concentration: 365 nM
# Setting: natural RNA segment, single round, ends assumed
# Reference: no-protein control
# Reading: higher = stronger binding
# All sequences stand within: GGGAGUUCUACAGUCCGACGAUC … UGGAAUUCUCGGGUGCCAA
# Construct (chain): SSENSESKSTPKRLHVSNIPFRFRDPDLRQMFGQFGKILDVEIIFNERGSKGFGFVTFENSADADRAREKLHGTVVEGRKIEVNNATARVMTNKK
Sequence,RBNS enrichment (R)
GAGAAGAGCCCUGGUCAGUGGCCUUGGAUUGUCACUUCUUUCAGGAUAAAGAUCCCUUGGGGGGGGGGGAGUUGGAUGUUUGACUACUAGGAGAUACUAGAGGCUCAGAC,0.714
GCUCUGGAGUGAGGAGGGAGUGACCCCUCAGCCUGUGUAGGGUCCAGUUUUAUGCUCUCGGAAGGCUCAGCAGUGAUUGCUGCCGAGUGGGAAGUAGCUUCUCCCAGCUG,0.479
AGGGUAAGCUAACUGAAUGCCUUGAAAAUAUUAUCCACUGGUCGGUCAUAUGGGAGACUUGUUUCAGUAUUAUUUAUAGUUGCACUUGAUUACCGUUCUCUGAGGCACUG,1.33
ACUUAAAAAAAAAAGUAGGGAGAUUAAAAAAAAAGAAAGAAAAUGCUUCCUUAUCUGGAAGCCUUUCUGGAUUAAUCCAGUGAUGGUCCCACCUUUAGUGUUUGAGCUUU,0.461
UCCCUAGUUUUCUAGGUGAGCUUCAUUCCCUGAAAGGAGGAUGAUGAUAUCUAGGCAUAACCUAGCCUGUGAGGAACCUAGUUAGGAAAGACAACUGACAUUUAUUGAAU,0.369
CUGAAUCAUCUAAAGCUAGGUCACUGUGUUGUGUAAAGGGGAGACAGGACUGACAGCAUCCCUUAACAUAAUAUUCUCAUGGUUCUCUGGGUUGGAAGAAAUAUAACUGU,0.722
CACCAUGGAGCCGAAGCCCAGAGACCCUGUCUCAGGCCUACGCAACAGCCACGAAAUAUUCUGAAGGAAAAUGAAACCAAUUAAGAAGACAAAGCCUAGGGAGGGACUGG,0.316
AGCCUGUGGCAGUAAAGAGAAACUUUGUGCUACAUGACGACAAAGCUGCUAAAUCUCCUAUUUUUUUAAAAUCACUAACAUUAUAUUGCAAUGAAGGAAAUAAAAAAGUC,0.903
GGAUGCCAGUUGGCAGCUGGAUCCUUCUGUUCACACGACUUGGAACCUUUUGUCCUUUGGGGCUGGGCACCUCCAGACCCUCUGUGUGUCCCUGUCAUCUGGGGAUGGGG,0.478
UUAUAAUCUGAGAGAGUUAAUCUCAGAGGAUGCUUUUUUCCUUUUAAUCUGCUAUGAAUCAGUACCCAGAUGUUUAAUUACUGUACUUAUUAAAUCAUGAGGGCAAAAGA,0.643
UCUGCUCCCGCUCUUGCUUCAGAGUCGGCACACUCACCUGCAUUUGAGUUCUGUCUAUAGCCCAGCAGGCUGCCUGUUUAAAAUCCCAUCAUGAAUUUAACAGGCUGAUG,0.573
AAAACUGUUUAGGUUAUAGUCUAUUGAUACUUUUUAUAUACAAUUUUAUAAAUAUAAAUAUUAUAAUUUUAUAUUAAUGGUACCAAAAAUACAUUUCUUAAGGUUAAAAG,1.93
